Published values of several laboratories.
Each numbered part is a random draw from the data of one study; scales do not carry over between parts. Several values in a cell are separate wells, animals, samples, runs or records.
Sequence of UniProt P41595 (whole entry, looked up): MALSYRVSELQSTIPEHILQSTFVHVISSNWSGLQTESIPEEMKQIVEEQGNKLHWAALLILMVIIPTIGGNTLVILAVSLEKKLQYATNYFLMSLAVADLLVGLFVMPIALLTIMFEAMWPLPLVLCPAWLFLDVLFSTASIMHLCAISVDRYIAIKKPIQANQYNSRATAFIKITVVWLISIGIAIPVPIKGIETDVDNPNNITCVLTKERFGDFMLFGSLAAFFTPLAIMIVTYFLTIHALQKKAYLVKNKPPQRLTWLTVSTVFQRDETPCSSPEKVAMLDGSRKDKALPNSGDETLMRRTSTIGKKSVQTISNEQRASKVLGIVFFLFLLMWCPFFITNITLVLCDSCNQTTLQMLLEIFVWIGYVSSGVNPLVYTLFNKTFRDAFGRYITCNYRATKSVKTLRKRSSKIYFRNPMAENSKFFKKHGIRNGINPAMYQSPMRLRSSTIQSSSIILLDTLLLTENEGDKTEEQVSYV
Sequence of UniProt P47898 (whole entry, looked up): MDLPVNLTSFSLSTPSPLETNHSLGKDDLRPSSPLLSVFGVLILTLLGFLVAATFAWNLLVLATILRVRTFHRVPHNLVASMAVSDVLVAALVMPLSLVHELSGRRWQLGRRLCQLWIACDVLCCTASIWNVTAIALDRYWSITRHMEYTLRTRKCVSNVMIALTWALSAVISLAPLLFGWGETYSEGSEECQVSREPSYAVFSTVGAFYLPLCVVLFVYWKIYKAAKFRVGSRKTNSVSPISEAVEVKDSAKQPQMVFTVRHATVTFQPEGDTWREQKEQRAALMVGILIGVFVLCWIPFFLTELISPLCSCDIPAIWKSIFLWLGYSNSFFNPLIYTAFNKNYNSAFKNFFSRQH
Sequence of UniProt P46098 (whole entry, looked up): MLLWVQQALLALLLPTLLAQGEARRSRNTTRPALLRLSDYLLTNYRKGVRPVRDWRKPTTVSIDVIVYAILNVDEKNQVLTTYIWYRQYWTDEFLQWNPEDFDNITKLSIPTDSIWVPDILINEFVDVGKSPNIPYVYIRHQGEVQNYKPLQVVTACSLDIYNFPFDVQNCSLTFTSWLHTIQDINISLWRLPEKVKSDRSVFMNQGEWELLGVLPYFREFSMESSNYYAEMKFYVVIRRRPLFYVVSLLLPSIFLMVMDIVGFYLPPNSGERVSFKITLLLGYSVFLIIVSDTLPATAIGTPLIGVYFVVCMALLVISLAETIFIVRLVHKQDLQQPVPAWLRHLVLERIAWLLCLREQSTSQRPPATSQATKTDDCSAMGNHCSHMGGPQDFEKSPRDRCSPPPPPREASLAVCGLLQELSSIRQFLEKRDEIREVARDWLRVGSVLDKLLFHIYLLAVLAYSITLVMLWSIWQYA

Study 1
Target: DNA polymerase theta, ATPase domain (POLQ, Homo sapiens, UniProt O75417)
Sequence of UniProt O75417 (whole entry, unmodified, looked up): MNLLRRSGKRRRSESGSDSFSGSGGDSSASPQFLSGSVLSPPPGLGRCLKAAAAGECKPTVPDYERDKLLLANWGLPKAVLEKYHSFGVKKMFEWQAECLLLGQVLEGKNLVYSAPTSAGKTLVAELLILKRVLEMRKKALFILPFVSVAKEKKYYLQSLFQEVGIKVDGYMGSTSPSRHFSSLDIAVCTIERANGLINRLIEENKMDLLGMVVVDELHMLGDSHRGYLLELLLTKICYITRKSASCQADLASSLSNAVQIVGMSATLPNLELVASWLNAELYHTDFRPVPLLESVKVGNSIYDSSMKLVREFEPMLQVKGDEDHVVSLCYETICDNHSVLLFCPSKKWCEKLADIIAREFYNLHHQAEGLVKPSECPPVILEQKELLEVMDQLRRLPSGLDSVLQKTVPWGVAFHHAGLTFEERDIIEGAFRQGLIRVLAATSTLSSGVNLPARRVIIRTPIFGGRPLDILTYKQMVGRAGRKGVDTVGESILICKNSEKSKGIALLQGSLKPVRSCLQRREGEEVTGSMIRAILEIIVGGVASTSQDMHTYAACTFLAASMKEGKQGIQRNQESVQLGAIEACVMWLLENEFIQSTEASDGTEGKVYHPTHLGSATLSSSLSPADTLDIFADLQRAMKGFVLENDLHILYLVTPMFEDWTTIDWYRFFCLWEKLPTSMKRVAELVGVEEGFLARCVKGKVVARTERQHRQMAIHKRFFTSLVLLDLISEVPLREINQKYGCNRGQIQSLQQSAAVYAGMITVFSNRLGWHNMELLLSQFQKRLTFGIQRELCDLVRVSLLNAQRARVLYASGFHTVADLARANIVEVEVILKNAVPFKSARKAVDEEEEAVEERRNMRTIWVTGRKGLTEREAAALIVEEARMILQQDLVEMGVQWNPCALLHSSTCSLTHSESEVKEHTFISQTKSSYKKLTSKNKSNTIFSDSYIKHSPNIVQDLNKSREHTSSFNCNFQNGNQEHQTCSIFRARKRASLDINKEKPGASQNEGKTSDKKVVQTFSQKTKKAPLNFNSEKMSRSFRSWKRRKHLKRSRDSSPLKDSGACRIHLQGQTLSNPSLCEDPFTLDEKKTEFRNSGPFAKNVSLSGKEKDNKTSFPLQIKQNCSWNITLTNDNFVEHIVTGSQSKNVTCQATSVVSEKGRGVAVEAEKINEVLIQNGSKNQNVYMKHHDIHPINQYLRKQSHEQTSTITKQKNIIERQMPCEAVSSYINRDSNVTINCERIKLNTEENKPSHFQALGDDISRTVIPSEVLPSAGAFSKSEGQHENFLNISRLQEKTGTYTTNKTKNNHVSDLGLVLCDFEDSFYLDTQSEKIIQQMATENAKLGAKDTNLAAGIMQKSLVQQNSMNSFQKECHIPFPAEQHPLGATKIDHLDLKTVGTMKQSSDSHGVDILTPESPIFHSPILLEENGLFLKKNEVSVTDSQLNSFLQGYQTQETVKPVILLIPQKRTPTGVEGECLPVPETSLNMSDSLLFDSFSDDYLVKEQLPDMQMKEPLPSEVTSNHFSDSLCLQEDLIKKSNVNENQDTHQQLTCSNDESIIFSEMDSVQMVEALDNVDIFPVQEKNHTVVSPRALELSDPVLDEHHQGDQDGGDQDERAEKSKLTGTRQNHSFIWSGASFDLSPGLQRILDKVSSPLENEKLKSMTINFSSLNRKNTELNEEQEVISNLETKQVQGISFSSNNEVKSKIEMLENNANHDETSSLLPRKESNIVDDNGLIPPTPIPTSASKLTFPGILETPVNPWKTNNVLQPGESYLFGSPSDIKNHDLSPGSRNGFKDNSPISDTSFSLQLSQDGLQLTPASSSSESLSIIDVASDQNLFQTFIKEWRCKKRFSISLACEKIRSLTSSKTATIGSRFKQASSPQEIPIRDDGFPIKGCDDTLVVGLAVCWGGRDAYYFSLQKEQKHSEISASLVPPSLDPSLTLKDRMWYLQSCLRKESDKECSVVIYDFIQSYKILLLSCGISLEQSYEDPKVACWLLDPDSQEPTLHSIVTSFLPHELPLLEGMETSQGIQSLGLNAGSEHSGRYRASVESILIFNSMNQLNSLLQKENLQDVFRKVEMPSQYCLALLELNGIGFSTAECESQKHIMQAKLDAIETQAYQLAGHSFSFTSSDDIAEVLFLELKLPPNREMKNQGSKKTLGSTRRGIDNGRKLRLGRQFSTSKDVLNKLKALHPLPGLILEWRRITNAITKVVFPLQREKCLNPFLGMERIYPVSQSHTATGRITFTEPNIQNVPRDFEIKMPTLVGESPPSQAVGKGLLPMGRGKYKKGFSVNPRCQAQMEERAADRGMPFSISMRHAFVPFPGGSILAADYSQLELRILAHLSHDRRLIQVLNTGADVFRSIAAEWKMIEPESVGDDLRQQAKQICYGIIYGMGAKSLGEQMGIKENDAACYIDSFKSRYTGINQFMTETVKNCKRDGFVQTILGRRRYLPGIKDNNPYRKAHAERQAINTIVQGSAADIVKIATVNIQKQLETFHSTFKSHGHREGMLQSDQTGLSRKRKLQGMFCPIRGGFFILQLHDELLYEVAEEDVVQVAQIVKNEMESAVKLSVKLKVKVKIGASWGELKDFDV
Observed: enzyme activity
Mode: inhibitor
Tested at: 77 µM
Relative to: untreated
SMILES	remaining activity
CCCCCCCCCCCC1=C(O)C(=O)C=C(O)C1=O	92.9%
Nc1ccccc1S(N)(=O)=O	102%
CNC[C@@H](O)c1ccc(O)c(O)c1	88.6%
Cc1cccc(C)c1OCC(=O)N[C@@H](Cc1ccccc1)[C@@H](O)C[C@H](Cc1ccccc1)NC(=O)[C@H](C(C)C)N1CCCNC1=O	100%
COc1c(N2C[C@@H]3CCCN[C@@H]3C2)c(F)cc2c(=O)c(C(=O)O)cn(C3CC3)c12	99%
NC(=O)c1cnccn1	94% and 102%
O=C(Nc1cccc(Cl)c1)c1ccccn1	75.6%
CC(=O)OC(C)C[N+](C)(C)C (stereo not shown)	101%
CC(C)NNC(=O)c1ccncc1	92.8% and 109%
C[C@@H](O)[C@H]1C(=O)N2C(C(=O)O)=C(S[C@@H]3CN[C@H](C(=O)N(C)C)C3)[C@H](C)[C@H]12	101% and 95.7%
CNC(=O)[C@H](Cc1ccccc1)NC(=O)[C@H](CC(C)C)[C@H](CSc1cccs1)C(=O)NO	98.6%
CCCCC(=O)N(Cc1ccc(-c2ccccc2-c2nnn[nH]2)cc1)[C@H](C(=O)O)C(C)C	91.4%
O=C(CCCN1CCN(c2ccccn2)CC1)c1ccc(F)cc1	103%
C1CCc2nnnn2CC1	98.3% and 101%
Cc1cc(-c2ccc(CC(=O)Nc3ccc(-c4cccnc4)cc3)cc2)ccn1	107%
CCOC(=O)[C@H](CCc1ccccc1)N[C@@H](C)C(=O)N1C(=O)N(C)C[C@H]1C(=O)O	102%

Study 2
Species: human
Matrix: microsomes or S9
Tested at: 2 µM
Time: 0.5 h
SMILES	remaining compound
CN(Cc1ccccc1-n1cccn1)C(=O)CN1CC2(CCCC2)CC1=O	> 100%
COc1cc(C)c2c(c1C=O)Oc1c(c(C)c(O)c3c1C(O)OC3=O)OC2=O (stereo not shown)	> 99%
O=S(=O)(c1c[nH]c2ncc(Cl)cc12)N1CCn2ncnc2C1	20.1%
COc1ccccc1NC(=O)NC1Cc2ccccc2C1	45%
CCN1CCN(C(=O)c2cc3c(=O)n4cc(C)ccc4nc3n2C)CC1	94.2%
O=C(NCCNC1=NS(=O)(=O)c2ccccc21)c1cccc(Br)c1	92.7%
CCOC(C)c1nc(Cn2nc3ccccn3c2=O)cs1 (stereo not shown)	91.7%
Cc1cc(Cl)ccc1NS(=O)(=O)c1cc(-c2ccc(=O)n(-c3c(C)noc3C)n2)ccc1C	2.9%
Cc1nc(Oc2ccccc2)c(N)c(N2CCC(C)CC2)n1	0.803%

Study 3
Target: Calcium/calmodulin-dependent protein kinase type II subunit gamma (CAMK2G, Homo sapiens, UniProt Q13555)
Sequence of UniProt Q13555 (whole entry, looked up): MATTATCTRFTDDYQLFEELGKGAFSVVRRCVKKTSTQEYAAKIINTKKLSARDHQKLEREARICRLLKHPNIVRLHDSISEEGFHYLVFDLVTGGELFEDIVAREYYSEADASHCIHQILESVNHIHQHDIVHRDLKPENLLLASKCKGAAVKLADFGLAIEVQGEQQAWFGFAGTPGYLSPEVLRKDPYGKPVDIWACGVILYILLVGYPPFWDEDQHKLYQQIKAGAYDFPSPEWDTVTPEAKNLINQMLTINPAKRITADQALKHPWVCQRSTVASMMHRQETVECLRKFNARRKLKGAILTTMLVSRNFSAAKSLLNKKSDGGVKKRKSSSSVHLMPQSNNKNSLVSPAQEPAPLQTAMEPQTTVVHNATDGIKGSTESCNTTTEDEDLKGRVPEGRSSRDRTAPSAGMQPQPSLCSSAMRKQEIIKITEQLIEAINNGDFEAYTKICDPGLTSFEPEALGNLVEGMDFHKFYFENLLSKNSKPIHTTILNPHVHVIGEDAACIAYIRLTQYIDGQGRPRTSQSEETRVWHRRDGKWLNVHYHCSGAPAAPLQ
Observed: enzyme activity
Mode: inhibitor
Tested at: 0.5 µM
Relative to: control
SMILES	remaining activity
Cc1nc(Nc2ncc(C(=O)Nc3c(C)cccc3Cl)s2)cc(N2CCN(CCO)CC2)n1	103%
Nc1[nH]nc2nnc(-c3c(-c4ccccc4)nn4ccccc34)cc12	96.7%
COc1cc2ncnc(Nc3ccc(OCc4ccccc4)cc3)c2cc1OC	94.2%
Cn1cc(/C=C2\C(=O)Nc3ccc(S(N)(=O)=O)cc32)c2ccccc21	91.9%
CCC(=O)Nc1ccc2ncnc(Nc3cccc(Br)c3)c2c1	105%
COc1ccc(-c2cnc3c(-c4ccsc4)cnn3c2)cc1	93.7%
Cn1cnc2cc3c(Nc4cccc(Br)c4)ncnc3cc21	104%
CCN1/C(=C/C(C)=O)Sc2ccc(OC)cc21	90.4%
CC(=O)O/N=C1/C(c2c(O)[nH]c3cc(Br)ccc23)=Nc2ccccc21	70.6%
COc1cc2ncc(-c3ccccc3)nc2cc1OC	94.5%
O=C1NC(=O)/C(=C/c2ccc3nccnc3c2)S1	101%
CC(C)[C@H](CO)Nc1nc(Nc2cccc(Cl)c2)c2ncn(C(C)C)c2n1	96.9%
O=C(Nc1ccc(Cl)cc1)c1ccccc1NCc1ccncc1	89.2%
COc1ccc(Cl)cc1NC(=O)Nc1cc(C)nc2ccccc12	91.6%
CCOc1cc2ncnc(Nc3cccc(Br)c3)c2cc1OCC	96.5%
CC(C)c1nn(-c2c(Cl)cccc2Cl)c2nc(Cc3ccc(OCCO)cc3)[nH]c(=O)c12	98.9%
CN(C)CCCn1cc(C2=C(c3c[nH]c4ccccc34)C(=O)NC2=O)c2ccccc21	73.3%
O=c1cc(N2CCOCC2)oc2c1ccc1ccccc12	95.5%
COc1cc2ncnc(N3CCN(C(=O)Nc4ccc(Oc5ccccc5)cc4)CC3)c2cc1OC	100%
C[S+]([O-])c1ccc(-c2nc(-c3ccncc3)c(-c3ccc(F)cc3)[nH]2)cc1 (stereo not shown)	82.2%
Cc1ccc(NC(=O)c2ccc(CN3CCN(C)CC3)cc2)cc1Nc1nccc(-c2cccnc2)n1	102%

Study 4
SMILES: Cc1nccc(COC(=O)N2C[C@@H]3[C@@H](CNC(=O)c4ccc5[nH]nnc5c4)[C@@H]3C2)n1
Observed: binding
Method: radioligand binding
Tested at: 10 µM
target	inhibition
5-hydroxytryptamine receptor 5A (HTR5A, Homo sapiens, UniProt P47898)	13.2%
5-hydroxytryptamine receptor 2B (HTR2B, Homo sapiens, UniProt P41595)	27.1%
5-hydroxytryptamine receptor 3A (HTR3A, Homo sapiens, UniProt P46098)	16.4%

For quick reference, copied from above (study 3):
SMILES	remaining activity
CC(=O)O/N=C1/C(c2c(O)[nH]c3cc(Br)ccc23)=Nc2ccccc21	70.6%
COc1cc2ncnc(N3CCN(C(=O)Nc4ccc(Oc5ccccc5)cc4)CC3)c2cc1OC	100%
Cn1cc(/C=C2\C(=O)Nc3ccc(S(N)(=O)=O)cc32)c2ccccc21	91.9%
O=c1cc(N2CCOCC2)oc2c1ccc1ccccc12	95.5%
